Experimental data from different studies.
A part holds a random share of what one study measured.

Study 1 — method: protein-binding microarray; form: double-stranded DNA, one strand shown; matrix: in vitro; concentration: not given; direction: higher = stronger binding
Target: Protein max, full length (MAX, Homo sapiens, UniProt P61244-2, residues 1-151)
Setting: k-mer, scored over probes, only values ≥0.25
Sequence	E-score
CCCTACCA	0.282
ATCCCACG	0.347
CATGGGTA	0.32
CACGAGAC	0.416
CGGTGCAC	0.281
ATGGCACG	0.397
ATGCGGTG	0.295
AAACCATG	0.345
CGCATGAA	0.28
ATGACATG	0.336

Study 2 — method: RNA Bind-n-Seq; form: RNA; matrix: in vitro; concentration: 365 nM; baseline: no-protein control; direction: higher = stronger binding
Target: RNA binding protein fox-1 homolog 2, RRM domain, GST-SBP tag (RBFOX2, Homo sapiens, UniProt O43251-10, residues 100-194)
Setting: natural RNA segment, single round, ends assumed
Construct (chain): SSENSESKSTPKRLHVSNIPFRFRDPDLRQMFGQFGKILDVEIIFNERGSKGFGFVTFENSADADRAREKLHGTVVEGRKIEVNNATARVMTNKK
Sequence	RBNS enrichment (R)
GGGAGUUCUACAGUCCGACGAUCAGAAGACCUCUGCUGCCACCUCGGGCUGUGCACUUGGGAUACGGUUGGUUCUCACGCCAUGAGGGAGAUGUUGGGGUAUACAGGAAGGGCAGAGUGACAUCCCCUCUCAGUGGAAUUCUCGGGUGCCAA	1.23
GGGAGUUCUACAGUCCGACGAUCGCAAGCAGAUUCGAAGAGCUGUUGCCCUCUUCUAAAAAAGGCUUUUGGAGGCUGUGUUACAUGCAUGCCCUAAAGCAGUCAGUCUGUUAGUAUGAGCAAGACAUCUGAAGUGGAAUUCUCGGGUGCCAA	2.39
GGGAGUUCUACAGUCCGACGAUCCUGGCUCUGACACUGUUGGGUGAGGGUCCUGGUCCUGCUGUCUUCCCUUCUGGCCUCUGCACAGGGGUGGUGACAGUGGCUACAGGCUGGGCCCCUGGCGUGCCCUGACCUGGAAUUCUCGGGUGCCAA	0.228
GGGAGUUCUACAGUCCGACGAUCGAAGUAUUAUUAAUAUUGCUACAGUGUUAUUAUGAUAUUGUUACUAUUAACCAUGUUGGGUGGAUAGCGGCAGAGCAAAAAGUUUGAAUGGGCUAGAGGUGGGAAGCUUGUGGAAUUCUCGGGUGCCAA	0.692
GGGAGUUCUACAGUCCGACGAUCCACCUCCUGGCUGGUUUACCUGCUGCUGCCCAUUUUCUCUGGGUACUGCUGGCCAGAGGACUUUAGCCUACCCCUGAAGAGCCUGUCCAUGUCAUUUUCCUACUGCCAUAUGGAAUUCUCGGGUGCCAA	0.559
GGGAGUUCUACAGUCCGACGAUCUGAAGAUUUCCUUCUGCAGUAUUUUCUUGAGAUAACAUAUUUGCUUUCCACCAUGUCCUGGGGGCCUGGUUAGUCCCUGGCCAUGGAGUGUGGUGGGAUGGCUGUCUUCUUGGAAUUCUCGGGUGCCAA	0.249
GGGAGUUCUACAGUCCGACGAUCACCAACACGAGGUGUUUGGUCUGCUUCCAUUCUCUUCUGUGUAGUGCCUGGUUUAUUUAACUAAUUAAUACCUCCUCUGUUGAUGAGCUAUUGAGAGUUGCAGUGUUUUAUGGAAUUCUCGGGUGCCAA	0.365
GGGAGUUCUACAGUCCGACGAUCGCAUCAAUAAAUCCAUUAUCCAGUUUUUGAAAAAUCAACUCCAAGGACUGGGUUUAUCUUUCAGUUGACAAAAAUCCAAGUUGUCUUUUGCUAGAAUAAAGCAGAAGGGCUGGAAUUCUCGGGUGCCAA	0.33

Study 3 — method: RNA Bind-n-Seq; form: RNA; matrix: in vitro; concentration: 100 nM; baseline: input RNA pool; direction: higher = stronger binding
Target: RING finger protein unkempt homolog, zinc fingers 1-6, SBP tag (UNK, Homo sapiens, UniProt Q9C0B0, residues 30-357)
Sequence of UniProt Q9C0B0 (30-357, looked up): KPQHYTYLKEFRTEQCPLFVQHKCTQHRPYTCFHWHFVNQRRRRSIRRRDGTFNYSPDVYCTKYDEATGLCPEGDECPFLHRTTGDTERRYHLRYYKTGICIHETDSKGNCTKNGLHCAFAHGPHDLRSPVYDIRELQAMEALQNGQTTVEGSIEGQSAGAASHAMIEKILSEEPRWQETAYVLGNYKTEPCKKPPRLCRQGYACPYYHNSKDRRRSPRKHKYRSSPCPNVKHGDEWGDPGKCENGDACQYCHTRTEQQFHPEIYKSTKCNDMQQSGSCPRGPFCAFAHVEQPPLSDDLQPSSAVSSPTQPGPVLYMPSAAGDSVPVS
Setting: RNA with constant flanks, vertebrate orthologous sites, ends assumed
Sequence	bound/input enrichment
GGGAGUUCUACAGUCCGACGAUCAAAUUUAUUUCAUGCCCUGGACGCCAUAUCGCACUGAUACUUUAAUAGAAUAUGCUUCUUUAGAAGAUUUUCAAAACAGCCGACAAACAACAACAUACAAACUUCCAAAUCGAGUAGAUGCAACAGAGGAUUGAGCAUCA	1.35 ratio
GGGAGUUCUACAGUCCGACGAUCGCAAUGAAAAAGCAGCCCUUCUCCCAGCCCCCUUUUCACUAGGAGAUACAAACAUUACCAUAGAAGAGCAAUUAAAUUCAAUAAAUUUAUCUUUUCAGGAUGAUCCAGACUCCAGUACCACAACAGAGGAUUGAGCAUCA	1.48 ratio
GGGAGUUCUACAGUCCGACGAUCCCUACAAUAAUGAAAACCUACAGGAAUUUUUUUAUUUUUCAUUUUCUCCUUAGGCAUAUUUAGUAUUUUUCCCCCAGGCAGAUCAUUCUGAGUGUGCGAGUGUGUGUGCACAUGUUACAACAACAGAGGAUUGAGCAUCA	2.16 ratio
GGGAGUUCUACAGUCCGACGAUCUUCUCAACUUGUUCUAGCUGGUGAUCCUUCAAAGUUGGGUCAGGCAGUAGUGCUAGGUACUAGAAAUUUUCAUUUCCCUAUUGCCAUUGAUCAGAGAAGACAGAUAUUAAAAAUAGAAAUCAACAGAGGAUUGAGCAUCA	0.524 ratio
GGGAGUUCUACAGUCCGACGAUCAACUACACUAAUACUGAAGUUACAGUUGAAAGGAUAUCCAAGGUGACGAUAAAGUGUGUGUUGGUAGUUACUAAAAGAACUUUAGCUGUUAUUGCCUUGUAUUUCUAUCCCUUGUUUCACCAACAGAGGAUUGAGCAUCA	0.323 ratio
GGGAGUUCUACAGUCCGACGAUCUCUUAUUGAUCAGGUCUGUAAAUGUGUACUAAAAAAAUCAGAGUUUAUUUAUAAACAGAAUAGUUUAUUUAAAGAGAAGGUCUUUCCUCAUCAAUAUAAAAUUGUGGUAUGCAUUAAUUCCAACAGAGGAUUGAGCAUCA	0.193 ratio
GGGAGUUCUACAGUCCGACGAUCAAUAUAAGAACUCUUGCAGCCUUAGAUGUUAUAAAAAUAUAUCUGAAUUGUAAGAGUUGCUUAGCAGUUUUUUUUAAGCACUUGUUUUGGGUACAAGGCAUUUCUGAUAUAGUUUUAUAACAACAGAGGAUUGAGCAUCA	0.346 ratio
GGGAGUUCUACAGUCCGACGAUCUCCUCAACUUGUUCUAGCUUGUGAUCCUUCAAAUCUGGAUCAUGCAUUAGUGCUAGAUUCUAGACAUUUUCACUUCUCUUUCCACUGAUCAGAGAAACAGACAUUAAAAGCAGAAAUACACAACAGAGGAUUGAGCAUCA	1.85 ratio

Study 4 — method: protein binding microarray; form: double-stranded DNA, one strand shown; matrix: in vitro; concentration: not given; baseline: not given; direction: higher = stronger binding
Target: Histone acetyltransferase KAT6A, both winged helices, GST fusion (KAT6A, Homo sapiens, UniProt Q92794, residues 1-181)
Setting: 8-mer, flanks averaged, mean of 2 arrays, mostly near background
Residues (chain): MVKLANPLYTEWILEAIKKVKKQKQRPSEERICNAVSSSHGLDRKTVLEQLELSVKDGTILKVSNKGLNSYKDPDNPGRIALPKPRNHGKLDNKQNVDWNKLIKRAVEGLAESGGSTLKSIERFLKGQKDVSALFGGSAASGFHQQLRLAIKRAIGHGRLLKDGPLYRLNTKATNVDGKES
Sequence	E-score
ACTGCAAT	-0.0652
ATGTTTAC	-0.0478
ACGAGAGG	-0.115
ACTCTCTG	-0.0899
AGCACACT	0.0144
AGCCCACT	-0.195
TGCTTAAA	-0.147
ACTTGGGA	-0.163
CGCCGTGA	0.323
AACCAAAA	-0.0845
GGGACTAC	0.0271
CTTATAAG	-0.0741
CAACTTAC	-0.117
AGAGAGAG	-0.213
GGCACCCC	-0.0207
CGACACGA	0.122
CGGTTACG	0.316
ACCGTTAA	0.108
ATCAGATA	-0.0864

Study 5 — method: RNA Bind-n-Seq; form: RNA; matrix: in vitro; concentration: 200 nM; setting: whole 134-nt RNA, ends assumed; with: 150 mM KCl; baseline: input library; direction: higher = stronger binding
Target: Ras GTPase-activating protein-binding protein 1, full length (G3BP1, Homo sapiens, UniProt Q13283)
Sequence of UniProt Q13283 (whole entry, looked up): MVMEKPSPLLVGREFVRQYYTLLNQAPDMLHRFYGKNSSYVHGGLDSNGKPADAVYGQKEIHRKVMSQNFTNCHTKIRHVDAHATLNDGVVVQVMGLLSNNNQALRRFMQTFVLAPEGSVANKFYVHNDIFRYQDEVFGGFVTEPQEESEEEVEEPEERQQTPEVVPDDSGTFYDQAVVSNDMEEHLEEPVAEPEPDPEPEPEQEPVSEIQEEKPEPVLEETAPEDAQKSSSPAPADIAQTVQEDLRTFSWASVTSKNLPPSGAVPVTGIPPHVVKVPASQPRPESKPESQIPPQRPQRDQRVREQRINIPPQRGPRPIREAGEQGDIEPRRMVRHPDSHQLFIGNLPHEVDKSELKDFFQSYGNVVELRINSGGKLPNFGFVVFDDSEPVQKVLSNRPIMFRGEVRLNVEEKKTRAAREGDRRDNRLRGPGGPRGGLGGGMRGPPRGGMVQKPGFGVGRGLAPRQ
Sequence	log2 enrichment
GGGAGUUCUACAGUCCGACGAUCCAUGUUGAAAGACAUGCUUUUAUUUUUUUGUAAAACAAUAUAGGAGCUGUGUCUACUAUUAAAAGUGAAACAUUUUGGCAUGUUUGUUAAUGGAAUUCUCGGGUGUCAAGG	-2.33
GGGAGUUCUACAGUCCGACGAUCAGUCCUGUGCUACACAUCGUAUGUACCGAAUCGGGAAAAGGAAAAGGGGAAAAGGGGAAAGUAUUAUGUUACGCCGUUCGGAUCUGCACUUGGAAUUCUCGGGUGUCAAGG	-0.132
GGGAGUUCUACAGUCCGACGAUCAGUCCUGUGCUACACAUCGUAUGUACCGAAUCGGAAAAAGGAAAAAGGGGAAAAAGGAAAGUAUUAUGUUACGCCGUUCGGAUCUGCACUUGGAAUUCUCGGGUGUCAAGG	-0.977
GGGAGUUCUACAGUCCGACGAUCACCAUGCAGGUGGGCAUCUUUGGGAAGUGGGGCAAGGGGGUGAUAGGGAGGGGGGUAACACUUUGGGAACAGGUGGUCCCAGGUCGUUUCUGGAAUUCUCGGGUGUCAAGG	1.2
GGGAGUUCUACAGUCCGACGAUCGUGGACAACGCGUACUGGCUGUGGACUUUCCAGGGACGCCUCCUGCAGAAGAACAACAAGGACCGCUUCUGCCAGCUGCUGUGGCGGCCCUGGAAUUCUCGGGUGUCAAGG	-1
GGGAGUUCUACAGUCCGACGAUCCAAGUCCUGUGCUACACAUCGUAUGUACCGAAUCGGAAAAAGGUGGAAAAAAAGGAAAGUAUUAUGUUACGCCGUUCGGAUCUGCACUUCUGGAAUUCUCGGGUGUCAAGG	-1.21
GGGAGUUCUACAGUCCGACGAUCCACAGACAACACGCACCCACACAGACACAGAGGGGAGGGGUUGGGAUGGGGACAGGGUGCACAGCAGGGCGGGGUAGGACCCCAGCCCCUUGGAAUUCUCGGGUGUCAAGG	1.84
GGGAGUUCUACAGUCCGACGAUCCAAGUCCUGUGCUACACAUCGUAUGUACCGAAUCGGUUUUUGGUUUUUGGAAAGGAAAGUAUUAUGUUACGCCGUUCGGAUCUGCACUUCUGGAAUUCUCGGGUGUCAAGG	-1.11
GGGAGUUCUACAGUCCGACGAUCUCCUCAAGUCCUGUGCUACACAUCGUAUGUACCGAAUCGGUGGUGGGUGGGGAAAGUAUUAUGUUACGCCGUUCGGAUCUGCACUUCCAGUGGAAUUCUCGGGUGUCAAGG	0.538

For quick reference, copied from above (study 4):
Sequence	E-score
ACTGCAAT	-0.0652
ATGTTTAC	-0.0478
ACGAGAGG	-0.115
ACTCTCTG	-0.0899
AGCACACT	0.0144
